Experimental data gathered from unrelated publications.
Lines come from different studies, so protocols differ. Several values in a cell are separate wells, animals, samples, runs or records. ± gives the spread as reported.
TRPV1: Transient receptor potential cation channel subfamily V member 1 (TRPV1, Homo sapiens, UniProt Q8NER1)
Chain of UniProt Q8NER1 (whole entry, looked up): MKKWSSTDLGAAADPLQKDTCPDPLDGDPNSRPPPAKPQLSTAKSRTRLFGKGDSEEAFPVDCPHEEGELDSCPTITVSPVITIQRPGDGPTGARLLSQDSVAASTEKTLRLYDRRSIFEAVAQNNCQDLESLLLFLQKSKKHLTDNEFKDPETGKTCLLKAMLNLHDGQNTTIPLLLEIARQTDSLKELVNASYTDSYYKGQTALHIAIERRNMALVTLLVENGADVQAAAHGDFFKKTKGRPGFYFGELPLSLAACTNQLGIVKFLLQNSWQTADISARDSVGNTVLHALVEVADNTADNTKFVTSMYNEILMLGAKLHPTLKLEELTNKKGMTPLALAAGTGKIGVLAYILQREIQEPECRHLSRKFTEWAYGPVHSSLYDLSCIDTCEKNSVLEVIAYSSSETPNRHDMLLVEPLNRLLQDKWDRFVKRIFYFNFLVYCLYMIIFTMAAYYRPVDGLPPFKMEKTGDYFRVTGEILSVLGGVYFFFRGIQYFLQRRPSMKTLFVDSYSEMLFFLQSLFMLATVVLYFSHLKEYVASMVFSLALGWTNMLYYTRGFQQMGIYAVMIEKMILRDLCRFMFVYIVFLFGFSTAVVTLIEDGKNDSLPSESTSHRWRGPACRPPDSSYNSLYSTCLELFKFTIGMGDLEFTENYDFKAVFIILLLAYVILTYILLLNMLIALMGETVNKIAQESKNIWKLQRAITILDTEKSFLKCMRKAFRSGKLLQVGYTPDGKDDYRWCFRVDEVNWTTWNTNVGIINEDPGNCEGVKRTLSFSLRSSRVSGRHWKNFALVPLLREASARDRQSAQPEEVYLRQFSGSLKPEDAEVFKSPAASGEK
NR4A1: Nuclear receptor subfamily 4 group A member 1 (NR4A1, Homo sapiens, UniProt P22736)
Chain of UniProt P22736 (whole entry, looked up): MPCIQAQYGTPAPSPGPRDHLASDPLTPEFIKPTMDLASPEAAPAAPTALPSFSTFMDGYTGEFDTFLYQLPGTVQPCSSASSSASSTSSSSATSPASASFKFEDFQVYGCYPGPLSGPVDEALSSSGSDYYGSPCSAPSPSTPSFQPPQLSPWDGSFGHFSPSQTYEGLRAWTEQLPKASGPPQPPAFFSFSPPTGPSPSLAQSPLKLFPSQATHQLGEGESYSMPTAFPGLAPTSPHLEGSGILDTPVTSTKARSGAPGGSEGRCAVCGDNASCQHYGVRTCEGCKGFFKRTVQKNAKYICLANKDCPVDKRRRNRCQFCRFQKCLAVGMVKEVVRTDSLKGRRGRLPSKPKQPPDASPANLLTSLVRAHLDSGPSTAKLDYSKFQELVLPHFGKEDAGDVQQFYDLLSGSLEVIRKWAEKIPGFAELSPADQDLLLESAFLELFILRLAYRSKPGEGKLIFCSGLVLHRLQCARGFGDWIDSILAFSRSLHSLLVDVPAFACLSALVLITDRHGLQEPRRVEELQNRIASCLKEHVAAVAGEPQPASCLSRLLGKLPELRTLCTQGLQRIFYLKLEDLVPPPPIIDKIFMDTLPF
GUK1: GUK1 (Homo sapiens, UniProt Q16774)
Chain of UniProt Q16774 (whole entry, looked up): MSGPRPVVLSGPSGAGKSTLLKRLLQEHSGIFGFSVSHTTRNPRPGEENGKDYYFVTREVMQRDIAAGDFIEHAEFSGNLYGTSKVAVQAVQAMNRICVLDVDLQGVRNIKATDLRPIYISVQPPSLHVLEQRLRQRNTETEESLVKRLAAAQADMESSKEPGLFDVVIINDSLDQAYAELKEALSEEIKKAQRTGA
T1: ssDNA, aptamer; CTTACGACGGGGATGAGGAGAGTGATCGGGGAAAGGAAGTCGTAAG
Chain of UniProt Q9NYV8 (whole entry, unmodified, looked up): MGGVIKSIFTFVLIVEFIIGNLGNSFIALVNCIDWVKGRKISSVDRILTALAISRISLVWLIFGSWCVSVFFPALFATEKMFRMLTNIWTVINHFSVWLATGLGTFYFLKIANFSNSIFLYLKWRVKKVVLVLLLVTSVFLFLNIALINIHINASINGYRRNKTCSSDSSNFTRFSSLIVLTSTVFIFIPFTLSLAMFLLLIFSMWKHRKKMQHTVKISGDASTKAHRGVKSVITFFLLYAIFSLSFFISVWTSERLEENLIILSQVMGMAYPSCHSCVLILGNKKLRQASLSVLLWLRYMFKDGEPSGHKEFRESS
Chain of UniProt O75762 (whole entry, looked up): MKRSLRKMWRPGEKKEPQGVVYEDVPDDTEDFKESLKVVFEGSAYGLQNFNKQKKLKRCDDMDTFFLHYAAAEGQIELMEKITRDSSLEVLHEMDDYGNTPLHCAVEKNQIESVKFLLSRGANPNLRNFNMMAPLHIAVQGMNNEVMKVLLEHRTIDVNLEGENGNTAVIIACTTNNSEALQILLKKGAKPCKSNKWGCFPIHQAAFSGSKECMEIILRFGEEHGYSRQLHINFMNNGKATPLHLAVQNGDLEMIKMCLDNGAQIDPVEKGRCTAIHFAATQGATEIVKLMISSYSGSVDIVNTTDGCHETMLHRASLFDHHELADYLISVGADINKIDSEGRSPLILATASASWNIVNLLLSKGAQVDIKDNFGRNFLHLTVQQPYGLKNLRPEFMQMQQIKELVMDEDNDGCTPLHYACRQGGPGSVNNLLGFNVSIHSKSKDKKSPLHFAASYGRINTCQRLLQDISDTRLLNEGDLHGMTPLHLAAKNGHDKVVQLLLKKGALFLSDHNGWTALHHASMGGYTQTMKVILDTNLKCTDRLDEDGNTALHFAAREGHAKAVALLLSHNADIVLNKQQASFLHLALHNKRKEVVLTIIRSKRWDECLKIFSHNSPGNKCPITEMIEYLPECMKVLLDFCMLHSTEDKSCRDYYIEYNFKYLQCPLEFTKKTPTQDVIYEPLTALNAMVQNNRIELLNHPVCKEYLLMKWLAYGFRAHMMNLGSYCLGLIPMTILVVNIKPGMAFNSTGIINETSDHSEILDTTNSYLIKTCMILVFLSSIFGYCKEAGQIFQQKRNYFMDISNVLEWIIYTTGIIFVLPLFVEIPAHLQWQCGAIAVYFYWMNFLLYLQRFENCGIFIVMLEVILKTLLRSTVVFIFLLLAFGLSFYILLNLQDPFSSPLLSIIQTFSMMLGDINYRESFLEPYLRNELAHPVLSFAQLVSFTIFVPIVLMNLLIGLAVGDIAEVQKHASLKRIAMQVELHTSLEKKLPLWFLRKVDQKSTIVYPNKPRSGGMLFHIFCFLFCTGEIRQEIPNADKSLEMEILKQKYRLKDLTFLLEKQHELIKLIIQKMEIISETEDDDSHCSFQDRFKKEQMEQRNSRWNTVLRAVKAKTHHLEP
Chain of UniProt Q64663 (whole entry, unmodified, looked up): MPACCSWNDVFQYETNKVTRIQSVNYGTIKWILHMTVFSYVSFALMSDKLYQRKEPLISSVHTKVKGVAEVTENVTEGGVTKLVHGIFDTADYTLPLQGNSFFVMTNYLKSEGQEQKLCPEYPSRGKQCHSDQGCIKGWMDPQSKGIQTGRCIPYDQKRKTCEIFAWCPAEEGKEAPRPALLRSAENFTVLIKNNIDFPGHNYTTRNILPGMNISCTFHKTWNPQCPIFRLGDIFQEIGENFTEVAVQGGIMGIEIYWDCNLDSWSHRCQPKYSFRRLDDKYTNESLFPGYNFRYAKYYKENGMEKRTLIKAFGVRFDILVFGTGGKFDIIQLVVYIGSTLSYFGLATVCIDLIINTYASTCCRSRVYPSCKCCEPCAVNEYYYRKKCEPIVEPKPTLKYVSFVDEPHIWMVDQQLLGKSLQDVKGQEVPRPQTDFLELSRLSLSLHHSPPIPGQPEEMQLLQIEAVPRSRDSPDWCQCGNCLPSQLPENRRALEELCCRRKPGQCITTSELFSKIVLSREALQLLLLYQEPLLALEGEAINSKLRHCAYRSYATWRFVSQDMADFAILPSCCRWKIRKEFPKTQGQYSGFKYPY
Chain of UniProt P51575 (whole entry, unmodified, looked up): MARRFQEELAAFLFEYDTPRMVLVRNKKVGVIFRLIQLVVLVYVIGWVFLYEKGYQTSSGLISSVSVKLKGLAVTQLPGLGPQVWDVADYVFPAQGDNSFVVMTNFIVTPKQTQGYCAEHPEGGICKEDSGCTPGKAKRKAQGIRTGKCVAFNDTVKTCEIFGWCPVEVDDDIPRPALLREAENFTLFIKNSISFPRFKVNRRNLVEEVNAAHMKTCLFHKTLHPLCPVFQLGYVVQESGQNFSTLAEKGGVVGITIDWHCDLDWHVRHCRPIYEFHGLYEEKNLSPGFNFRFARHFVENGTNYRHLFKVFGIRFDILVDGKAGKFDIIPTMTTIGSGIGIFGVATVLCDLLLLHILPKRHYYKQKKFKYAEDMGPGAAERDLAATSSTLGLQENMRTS
Chain of UniProt Q9UBL9 (whole entry, unmodified, looked up): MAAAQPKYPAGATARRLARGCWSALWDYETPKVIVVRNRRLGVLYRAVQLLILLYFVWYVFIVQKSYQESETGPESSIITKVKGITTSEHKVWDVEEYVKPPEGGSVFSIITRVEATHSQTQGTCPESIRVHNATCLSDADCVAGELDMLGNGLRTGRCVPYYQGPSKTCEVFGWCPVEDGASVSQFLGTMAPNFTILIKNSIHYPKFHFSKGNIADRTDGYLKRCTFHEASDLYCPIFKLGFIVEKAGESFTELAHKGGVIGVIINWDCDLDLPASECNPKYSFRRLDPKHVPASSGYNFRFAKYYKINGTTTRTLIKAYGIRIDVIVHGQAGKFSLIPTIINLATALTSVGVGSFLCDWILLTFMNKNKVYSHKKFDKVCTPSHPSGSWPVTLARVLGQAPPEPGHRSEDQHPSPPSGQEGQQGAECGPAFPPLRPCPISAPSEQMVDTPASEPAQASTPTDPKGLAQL
Chain of UniProt Q9Y243 (whole entry, looked up): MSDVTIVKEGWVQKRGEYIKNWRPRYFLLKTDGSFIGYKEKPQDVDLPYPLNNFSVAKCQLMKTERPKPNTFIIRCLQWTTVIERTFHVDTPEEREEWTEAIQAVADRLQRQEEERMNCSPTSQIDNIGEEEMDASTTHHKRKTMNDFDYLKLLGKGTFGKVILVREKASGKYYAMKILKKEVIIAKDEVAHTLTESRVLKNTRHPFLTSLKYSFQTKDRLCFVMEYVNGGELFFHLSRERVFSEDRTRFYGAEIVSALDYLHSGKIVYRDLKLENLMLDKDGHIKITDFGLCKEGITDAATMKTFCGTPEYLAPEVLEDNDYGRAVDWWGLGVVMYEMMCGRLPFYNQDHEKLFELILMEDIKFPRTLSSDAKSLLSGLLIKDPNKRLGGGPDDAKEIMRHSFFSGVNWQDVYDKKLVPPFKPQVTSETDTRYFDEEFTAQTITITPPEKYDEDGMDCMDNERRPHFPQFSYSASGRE

COc1cc(CNC(=O)CCCC/C=C/C(C)C)ccc1O — closed time constant (TRPV1; channel gating, single-channel inside-out patch; 100 nM, component 4 of four): 55.6 ms
C#CCCOC(=O)[C@]1(C)C=C(C(=O)OC(C)(C)C)C(=O)CC1 — fraction bound (Mitogen-activated protein kinase 8 (MAPK8, Homo sapiens, UniProt P45983); D-peptide binding, inhibitor, FP peptide displacement; 1.562 µM; lower is stronger displacement): 0.788
O=C(O)c1ccccc1Nc1cccc(C(F)(F)F)c1 — ΔBRET (Taste receptor type 2 member 14 (TAS2R14, Homo sapiens, UniProt Q9NYV8); G-protein dissociation, TRUPATH gustducin BRET; 1 µM, wild-type receptor, unit not given; baseline: vehicle): 0.00561 and 0.00673 and -0.0303 and -0.00466 and 0.0107 and 0.0661 and 0.00771
COc1cc(CNC(=O)CCCC/C=C/C(C)C)ccc1O — calcium response (TRPV1; channel activation, FLIPR calcium; HEK293T; 0.0274 µM; higher = more activation): 9.69 a.u. and 7.06 a.u. and 3.9 a.u. and 9.57 a.u.
CC(=O)N[C@H](C(=O)N[C@@H](CC(N)=O)C(=O)N[C@@H](CCCCN)C(=O)N[C@@H](C)C(=O)N[C@@H](CC(C)C)C(=O)N1CCC[C@H]1C(=O)N[C@@H](C)C(=O)N[C@@H](CC(C)C)C(=O)N1CCC[C@H]1C(=O)N[C@H](C(=O)N[C@@H](C)C(N)=O)C(C)C)C(C)C — -TΔS (High osmolarity signaling protein SHO1, SH3 domain (SHO1, Saccharomyces cerevisiae, UniProt P40073); binding, isothermal titration calorimetry; 50 mM sodium phosphate, 100 mM NaCl; pH 7.0, 25 °C): 2.53 ± 0.0717 kcal/mol
CC(=O)N[C@H](C(=O)N1C[C@H](O)C[C@H]1C(=O)NCc1ccc(-c2scnc2C)cc1)C(C)(C)SCCCCCCNC(=O)C[C@@H]1N=C(c2ccc(Cl)cc2)c2c(sc(C)c2C)-n2c(C)nnc21 — ΔH (VHL/BRD3, BD1; with Elongin B/C (Homo sapiens, UniProt P40337+Q15059); ternary complex binding, ITC; 25 °C, with: VHL-ElonginB-ElonginC titrated into compound:PROTAC:Brd3^BD1 complex): -4.38 ± 0.03 kcal/mol
COc1nc(-c2cccc(-c3ccccc3)c2C)ccc1CNCCNC(=O)CCCCCCCCCCC(=O)N1CCN(CCNC(=O)c2cc3c(=O)n4cccc(C)c4nc3n(CCc3cccs3)c2=N)CC1 — SPOP-PD-L1 interaction (SPOP/CD274 (Homo sapiens, UniProt O43791+Q9NZQ7); biolayer interferometry; concentration not given, ternary complex; baseline: absence of compound): increased
Cc1cccc(/C=C/C(=O)Nc2cc(-c3ccnc(N4CCC(O)CC4)c3)ccn2)c1 — binding response (NR4A1; SPR; 10.0 µM): 33 RU
COCCC(=O)N1CCC(Oc2ccccc2)C1 (centres unmarked) — log fold enrichment (ATP-dependent RNA helicase DDX1 (Homo sapiens, UniProt Q92499); binding, affinity selection mass spectrometry; baseline: other proteins in batch): 0.108
Cc1cc(Nc2cc(N3CCN(C)CC3)nc(Sc3ccc(NC(=O)C4CC4)cc3)n2)[nH]n1 — remaining activity (Macrophage-stimulating protein receptor (MST1R, Homo sapiens, UniProt Q04912); kinase activity, KinaseProfiler; 0.03 µM, species human; baseline: control): 77%
COc1ccc(-c2n[nH]c(=S)o2)cc1 — fluorescence increase (P2X purinoceptor 2 (P2RX2, Homo sapiens, UniProt Q9UBL9); calcium mobilization; MCF7 stably transfected; 100 µM, with: ATP 100 µM): 80.9 ± 1.89%
[Cl-].[Na+] — reaction velocity (GUK1; enzyme activity, NADH-coupled; 90 mM): 0.00487 µM/s and 0.0126 µM/s and 0.0127 µM/s
Nc1nc2c(ncn2[C@H]2C[C@H](O)[C@@H](COP(=O)(O)OP(=O)(O)OP(=O)(O)O)O2)c(=O)[nH]1 — incorporation efficiency (DNA-directed RNA polymerase subunit beta' / DNA-directed RNA polymerase subunit beta (rpoC/rpoB, Escherichia coli, UniProt P0A8T7+P0A8V2); RNA extension, denaturing gel; Escherichia coli, elongation complex, 6-MI template; 5 µM, 10 min, 25 °C): 85%
CCCCCCCCC(=O)c1cc(O)c(O)c(O)c1 — activation (NR4A1; reporter gene, Gal4 hybrid reporter; 10 µM; baseline: vehicle): 1.64 fold
[Ca] — potentiation (Transient receptor potential cation channel subfamily A member 1 (TRPA1, Homo sapiens, UniProt O75762); ion current, two-electrode voltage clamp; Xenopus oocytes; 500 µM, +80 mV, with: extracellular Ca2+; baseline: current before Ca2+ addition): 1.22 fold change and 1.34 fold change and 1.18 fold change and 1.25 fold change and 1.48 fold change and 1.56 fold change and 1.42 fold change
O=[N+]([O-])c1ccc(S(=O)(=O)Nc2nnc(Cc3ccc(Cl)c(Cl)c3)s2)cc1 — Kii (Glutathione hydrolase 1 proenzyme, without transmembrane domain (Homo sapiens, UniProt P19440); GSH hydrolysis, inhibitor; 37 °C, with: GSH 5 to 20 µM): 859 ± 83 µM
Nc1ncnc2c1ncn2[C@@H]1O[C@H](COP(=O)(O)OP(=O)(O)OP(=O)(O)O)[C@@H](O)[C@H]1O — normalized current (P2X purinoceptor 7 (P2rx7, Rattus norvegicus, UniProt Q64663); ion current, agonist, two-electrode voltage clamp; Xenopus laevis oocytes; 3000 µM; baseline: highest concentration response): 0.97 and 1
O=c1nc(SCc2cc(F)cc(C(F)(F)F)c2)nc(SCc2csc3ccc(Cl)cc23)[nH]1 — decatenated DNA (DNA topoisomerase 2-alpha (TOP2A, Homo sapiens, UniProt P11388); decatenation; 0.49 µM, replicate 1): 0%
O=C(CN1CCO[C@H](COc2cccc(Cl)c2)C1)N1CCc2ccccc21 — inhibition (D(4) dopamine receptor (DRD4, Homo sapiens, UniProt P21917); radioligand binding; concentration not given, with: [3H]N-methylspiperone): 72.9%
Nc1nc2c(ncn2[C@@H]2O[C@H](COP(=O)(O)O)[C@@H](O)[C@H]2O)c(=O)[nH]1 — Vmax (GUK1; substrate, NADH-coupled; NaCl 10 mM, enzyme 2 nM): 0.0947 µM/s
Nc1ncnc2c1ncn2[C@@H]1O[C@H](COP(=O)(O)OP(=O)(O)O)[C@@H](O)[C@H]1O — Kd (T1, ssDNA, aptamer; ITC): 24.3 µM
O=C(O)c1ccc(Nc2ncc3c(n2)-c2ccc(Cl)cc2C(c2c(F)cccc2F)=NC3)cc1 — remaining activity (human PKCα(h); kinase activity; 1 µM): 108%
Nc1ncnc2c1ncn2[C@@H]1O[C@H](COP(=O)(O)CP(=O)(O)OP(=O)(O)O)[C@@H](O)[C@H]1O — specific binding (P2X purinoceptor 1 (P2RX1, Homo sapiens, UniProt P51575, L218T); saturation binding; HEK293; 79 nM): 4080 CCPM and 4090 CCPM
NC(=O)CC[C@H](N)C(=O)O — binding (Uncharacterized protein (Pelagibacter ubique, UniProt Q4FMW4); isothermal titration calorimetry; Candidatus Pelagibacter ubique; concentration not given): no binding
Cc1n[nH]c2ccc(-c3cc(OC[C@@H](N)Cc4ccccc4)cnc3-c3ccoc3)cc12 — log2 fold change (Mitogen-activated protein kinase HOG1 (HOG1, Candida albicans, UniProt Q92207); MIB/MS competition binding; Candida albicans cell lysate; 1 µM; baseline: DMSO, lower = stronger binding): 0.244
N#C[C@@]12C[C@@H]1[C@@H](n1cnc3c(N[C@@H](C4CCC4)C4CC4)nc(I)nc31)[C@H](O)[C@@H]2O — affinity gain (5-hydroxytryptamine receptor 2B (HTR2B, Homo sapiens, UniProt P41595); radioligand binding; with: [3H]LSD; baseline: 4′-cyano over 4′-CH2OH analogue): 13 fold
CCCN1C(=O)COc2ccc(NS(=O)(=O)c3c(C(C)C)cc(C(C)C)cc3C(C)C)cc21 — ATG14L-Beclin1 interaction (Beclin 1-associated autophagy-related key regulator, with Beclin 1 (ATG14, Homo sapiens, UniProt Q6ZNE5); NanoBRET; 100 µM; baseline: DMSO): active
CC(=O)N[C@H]1[C@@H](OC(C)C(N)C(=O)O)O[C@H](CO[C@]2(C(=O)O)C[C@H](O)[C@@H](NC(C)=O)[C@H]([C@H](O)[C@H](O)CO)O2)[C@H](O)[C@@H]1O (some centres unmarked) — binding stoichiometry (CLEC10A, carbohydrate recognition domain (Homo sapiens, UniProt Q8IUN9); binding to carbohydrate recognition domain, ITC, single-site model; concentration not given, 293 K): 1.36 ± 0.06 sites
CCCC[C@@H]1NC(=O)[C@H](Cc2ccc(O)cc2)NC(=O)[C@@H]2CCCN2C(=O)[C@H](CC(=O)O)NC(=O)[C@H](C)NC(=O)[C@H](Cc2ccccc2)NC(=O)[C@@H]2CSCCC(=O)N3CN(CN(C3)C(=O)CCSC[C@@H](C(=O)N[C@@H](C)C(N)=O)NC1=O)C(=O)CCSC[C@H](NC(C)=O)C(=O)N[C@@H](CC(C)(C)C)C(=O)N1CCC[C@H]1C(=O)N[C@@H](CCC(=O)O)C(=O)N[C@H](CCCCNC(=O)CCc1cn(CCOCCOCCOCCOCCOCCC(=O)NCCCC[C@H]3NC(=O)[C@H](Cc4cccc5ccccc45)NC(=O)[C@@H]4CCCN4C(=O)[C@@H](NC(C)=O)CSCCC(=O)N4CN5CN(C4)C(=O)CCSC[C@H](NC3=O)C(=O)N[C@@H](CCSC)C(=O)N[C@@H](CCCCNC(=N)N)C(=O)N[C@@H](CC(=O)O)C(=O)N[C@@H](Cc3c[nH]c4ccccc34)C(=O)N[C@@H](CO)C(=O)N[C@@H]([C@@H](C)O)C(=O)N3CCC[C@H]3C(=O)N3C[C@H](O)C[C@H]3C(=O)N[C@@H](Cc3c[nH]c4ccccc34)C(=O)N[C@H](C(N)=O)CSCCC5=O)nn1)C(=O)N1CCC[C@H]1C(=O)N[C@@H](Cc1ccc(O)cc1)C(=O)N2 — Emax (Tumor necrosis factor receptor superfamily member 9/Nectin-4 (Homo sapiens, UniProt Q07011+Q96NY8); reporter gene, agonist; HT-1376 coculture with reporter cells; baseline: background): 44 fold
Nc1ncnc2c1ncn2[C@@H]1O[C@H](COP(=O)(O)OP(=O)(O)OP(=O)(O)O)[C@@H](O)[C@H]1O — Hill slope (P2X purinoceptor 2 (P2RX2, Homo sapiens, UniProt Q9UBL9, D148K/E146K/L150K/M149R); ion current, agonist, two-electrode voltage clamp; Xenopus oocytes): 1.45
C=CC(=O)N1CCC(COCC(=O)N2CCN(c3nc(-c4cnc(N)nc4C(F)F)nc(N4CCOC[C@@H]4C)n3)CC2)CC1 — remaining binding (RAC-gamma serine/threonine-protein kinase (AKT3, Homo sapiens, UniProt Q9Y243); KINOMEscan; 1 µM): 100%
Oc1ccccc1-c1n[nH]cc1-c1ccnc2ccccc12 — log2 fold change (Mitosis inhibitor protein kinase SWE1 (SWE1, Candida albicans, UniProt Q5AP97); kinase binding, MIB/MS competition; Candida albicans lysate; 1 µM; baseline: DMSO, negative = stronger binding): 0.05
C=CC(=O)N1CCC(C(=O)NCC(=O)N2CCN(c3nc(-c4cnc(N)nc4C(F)F)nc(N4CCOCC4)n3)CC2)CC1 — remaining binding (cAMP-dependent protein kinase catalytic subunit PRKX (PRKX, Homo sapiens, UniProt P51817); KINOMEscan; 1 µM): 100%
COC(=O)c1cn(C)c2ccc(-c3cccnc3)cc12 — activation (NR4A1; reporter gene, NBRE reporter full-length; 10 µM; baseline: vehicle): 0.64 fold
O=C(CN(Cc1ccccc1)S(=O)(=O)c1ccc(F)cc1)Nc1cccc(Cl)c1Cl — delta Tm (Sodium channel protein type 8 subunit alpha, C-terminal domain (SCN8A, Homo sapiens, UniProt Q9UQD0); binding, protein thermal shift; 25 µM): 6.8 °C

A few entries again:
Nc1nc2c(ncn2[C@H]2C[C@H](O)[C@@H](COP(=O)(O)OP(=O)(O)OP(=O)(O)O)O2)c(=O)[nH]1 — incorporation efficiency (DNA-directed RNA polymerase subunit beta' / DNA-directed RNA polymerase subunit beta (rpoC/rpoB, Escherichia coli, UniProt P0A8T7+P0A8V2); RNA extension, denaturing gel; Escherichia coli, elongation complex, 6-MI template; 5 µM, 10 min, 25 °C): 85%
O=C(O)c1ccccc1Nc1cccc(C(F)(F)F)c1 — ΔBRET (Taste receptor type 2 member 14 (TAS2R14, Homo sapiens, UniProt Q9NYV8); G-protein dissociation, TRUPATH gustducin BRET; 1 µM, wild-type receptor, unit not given; baseline: vehicle): 0.00561 and 0.00673 and -0.0303 and -0.00466 and 0.0107 and 0.0661 and 0.00771
O=C(O)c1ccc(Nc2ncc3c(n2)-c2ccc(Cl)cc2C(c2c(F)cccc2F)=NC3)cc1 — remaining activity (human PKCα(h); kinase activity; 1 µM): 108%
CCCC[C@@H]1NC(=O)[C@H](Cc2ccc(O)cc2)NC(=O)[C@@H]2CCCN2C(=O)[C@H](CC(=O)O)NC(=O)[C@H](C)NC(=O)[C@H](Cc2ccccc2)NC(=O)[C@@H]2CSCCC(=O)N3CN(CN(C3)C(=O)CCSC[C@@H](C(=O)N[C@@H](C)C(N)=O)NC1=O)C(=O)CCSC[C@H](NC(C)=O)C(=O)N[C@@H](CC(C)(C)C)C(=O)N1CCC[C@H]1C(=O)N[C@@H](CCC(=O)O)C(=O)N[C@H](CCCCNC(=O)CCc1cn(CCOCCOCCOCCOCCOCCC(=O)NCCCC[C@H]3NC(=O)[C@H](Cc4cccc5ccccc45)NC(=O)[C@@H]4CCCN4C(=O)[C@@H](NC(C)=O)CSCCC(=O)N4CN5CN(C4)C(=O)CCSC[C@H](NC3=O)C(=O)N[C@@H](CCSC)C(=O)N[C@@H](CCCCNC(=N)N)C(=O)N[C@@H](CC(=O)O)C(=O)N[C@@H](Cc3c[nH]c4ccccc34)C(=O)N[C@@H](CO)C(=O)N[C@@H]([C@@H](C)O)C(=O)N3CCC[C@H]3C(=O)N3C[C@H](O)C[C@H]3C(=O)N[C@@H](Cc3c[nH]c4ccccc34)C(=O)N[C@H](C(N)=O)CSCCC5=O)nn1)C(=O)N1CCC[C@H]1C(=O)N[C@@H](Cc1ccc(O)cc1)C(=O)N2 — Emax (Tumor necrosis factor receptor superfamily member 9/Nectin-4 (Homo sapiens, UniProt Q07011+Q96NY8); reporter gene, agonist; HT-1376 coculture with reporter cells; baseline: background): 44 fold
Cc1n[nH]c2ccc(-c3cc(OC[C@@H](N)Cc4ccccc4)cnc3-c3ccoc3)cc12 — log2 fold change (Mitogen-activated protein kinase HOG1 (HOG1, Candida albicans, UniProt Q92207); MIB/MS competition binding; Candida albicans cell lysate; 1 µM; baseline: DMSO, lower = stronger binding): 0.244
